{"data": "Experimental data from different studies", "note": "A part holds a random share of what one study measured.", "chain of UniProt P54753 (whole entry, looked up)": "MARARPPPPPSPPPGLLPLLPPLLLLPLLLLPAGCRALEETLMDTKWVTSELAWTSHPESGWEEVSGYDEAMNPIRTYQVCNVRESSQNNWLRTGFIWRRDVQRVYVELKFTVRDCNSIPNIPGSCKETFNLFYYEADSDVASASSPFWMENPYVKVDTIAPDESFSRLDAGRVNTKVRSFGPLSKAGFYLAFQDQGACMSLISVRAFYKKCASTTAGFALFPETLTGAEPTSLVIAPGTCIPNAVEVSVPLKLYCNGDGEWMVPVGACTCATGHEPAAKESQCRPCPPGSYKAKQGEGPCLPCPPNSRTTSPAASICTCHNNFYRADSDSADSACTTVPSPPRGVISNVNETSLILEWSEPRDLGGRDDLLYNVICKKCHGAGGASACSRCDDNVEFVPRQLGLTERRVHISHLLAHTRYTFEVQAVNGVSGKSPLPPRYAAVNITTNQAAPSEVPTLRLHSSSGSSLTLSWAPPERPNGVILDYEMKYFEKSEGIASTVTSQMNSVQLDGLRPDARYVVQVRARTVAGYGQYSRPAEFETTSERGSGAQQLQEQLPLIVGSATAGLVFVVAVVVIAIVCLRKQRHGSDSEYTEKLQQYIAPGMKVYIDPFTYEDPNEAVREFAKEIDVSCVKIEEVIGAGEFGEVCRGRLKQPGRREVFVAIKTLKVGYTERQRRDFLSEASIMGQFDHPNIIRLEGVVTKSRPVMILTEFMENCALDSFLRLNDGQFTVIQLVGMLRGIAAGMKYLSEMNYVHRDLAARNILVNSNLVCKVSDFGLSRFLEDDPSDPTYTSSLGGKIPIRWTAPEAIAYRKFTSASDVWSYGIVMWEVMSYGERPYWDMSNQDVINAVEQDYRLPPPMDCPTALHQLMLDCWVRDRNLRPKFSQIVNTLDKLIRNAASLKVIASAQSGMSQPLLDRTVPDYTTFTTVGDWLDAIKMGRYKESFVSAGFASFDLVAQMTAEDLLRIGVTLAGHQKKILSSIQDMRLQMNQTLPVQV", "chain of UniProt Q9P0L2 (whole entry, looked up)": "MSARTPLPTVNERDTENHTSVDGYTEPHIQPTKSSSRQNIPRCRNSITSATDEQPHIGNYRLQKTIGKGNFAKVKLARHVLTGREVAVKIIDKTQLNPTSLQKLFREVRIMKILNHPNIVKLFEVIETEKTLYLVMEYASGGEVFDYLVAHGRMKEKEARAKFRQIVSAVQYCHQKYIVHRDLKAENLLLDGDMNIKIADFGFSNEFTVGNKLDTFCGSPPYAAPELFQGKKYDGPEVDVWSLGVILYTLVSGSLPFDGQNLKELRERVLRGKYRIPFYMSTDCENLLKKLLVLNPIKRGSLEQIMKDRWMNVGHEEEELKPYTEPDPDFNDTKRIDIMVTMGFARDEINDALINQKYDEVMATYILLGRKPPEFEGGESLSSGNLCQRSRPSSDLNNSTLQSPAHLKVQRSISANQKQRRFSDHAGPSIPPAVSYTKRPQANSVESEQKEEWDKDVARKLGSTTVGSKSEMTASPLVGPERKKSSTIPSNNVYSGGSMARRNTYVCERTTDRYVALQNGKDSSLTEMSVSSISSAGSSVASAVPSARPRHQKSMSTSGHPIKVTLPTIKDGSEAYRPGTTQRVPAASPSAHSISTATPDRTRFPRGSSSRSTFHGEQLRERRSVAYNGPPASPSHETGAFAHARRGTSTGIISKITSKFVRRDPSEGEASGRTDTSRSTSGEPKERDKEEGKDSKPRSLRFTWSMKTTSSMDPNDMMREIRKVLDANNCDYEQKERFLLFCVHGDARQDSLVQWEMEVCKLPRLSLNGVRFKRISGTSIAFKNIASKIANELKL", "chain of UniProt O96013 (whole entry, looked up)": "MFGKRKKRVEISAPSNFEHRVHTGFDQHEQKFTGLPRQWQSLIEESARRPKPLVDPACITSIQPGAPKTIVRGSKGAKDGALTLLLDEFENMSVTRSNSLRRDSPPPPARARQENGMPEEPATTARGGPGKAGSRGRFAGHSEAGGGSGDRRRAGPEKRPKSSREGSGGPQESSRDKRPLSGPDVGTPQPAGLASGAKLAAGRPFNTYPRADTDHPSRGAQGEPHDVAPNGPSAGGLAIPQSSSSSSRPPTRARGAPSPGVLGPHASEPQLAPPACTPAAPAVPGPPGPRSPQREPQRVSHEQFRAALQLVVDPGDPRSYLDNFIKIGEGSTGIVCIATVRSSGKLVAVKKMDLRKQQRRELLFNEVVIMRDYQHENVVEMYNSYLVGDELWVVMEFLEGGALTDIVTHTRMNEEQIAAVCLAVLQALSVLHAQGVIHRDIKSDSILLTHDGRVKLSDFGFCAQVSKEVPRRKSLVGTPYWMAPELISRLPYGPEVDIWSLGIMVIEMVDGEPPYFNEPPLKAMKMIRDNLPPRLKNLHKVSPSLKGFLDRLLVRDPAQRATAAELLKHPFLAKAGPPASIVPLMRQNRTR", "chain of UniProt Q14680 (whole entry, looked up)": "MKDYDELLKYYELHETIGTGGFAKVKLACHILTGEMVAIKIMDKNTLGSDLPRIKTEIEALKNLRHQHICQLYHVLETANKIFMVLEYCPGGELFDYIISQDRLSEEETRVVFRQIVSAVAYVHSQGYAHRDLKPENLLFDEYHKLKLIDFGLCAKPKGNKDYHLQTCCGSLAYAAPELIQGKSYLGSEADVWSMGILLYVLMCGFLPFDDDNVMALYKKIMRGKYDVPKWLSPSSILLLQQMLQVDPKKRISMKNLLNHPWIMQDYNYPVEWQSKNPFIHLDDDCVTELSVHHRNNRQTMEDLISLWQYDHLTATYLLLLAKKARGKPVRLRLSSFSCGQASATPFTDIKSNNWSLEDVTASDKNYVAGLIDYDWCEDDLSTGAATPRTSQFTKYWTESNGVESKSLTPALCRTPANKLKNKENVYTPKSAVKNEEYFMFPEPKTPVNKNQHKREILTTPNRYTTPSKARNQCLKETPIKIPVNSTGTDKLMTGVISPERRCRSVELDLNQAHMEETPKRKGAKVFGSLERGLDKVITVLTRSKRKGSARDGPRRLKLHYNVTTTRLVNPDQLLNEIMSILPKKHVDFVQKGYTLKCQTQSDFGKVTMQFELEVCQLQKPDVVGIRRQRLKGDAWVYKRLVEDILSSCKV", "chain of UniProt P07947 (whole entry, looked up)": "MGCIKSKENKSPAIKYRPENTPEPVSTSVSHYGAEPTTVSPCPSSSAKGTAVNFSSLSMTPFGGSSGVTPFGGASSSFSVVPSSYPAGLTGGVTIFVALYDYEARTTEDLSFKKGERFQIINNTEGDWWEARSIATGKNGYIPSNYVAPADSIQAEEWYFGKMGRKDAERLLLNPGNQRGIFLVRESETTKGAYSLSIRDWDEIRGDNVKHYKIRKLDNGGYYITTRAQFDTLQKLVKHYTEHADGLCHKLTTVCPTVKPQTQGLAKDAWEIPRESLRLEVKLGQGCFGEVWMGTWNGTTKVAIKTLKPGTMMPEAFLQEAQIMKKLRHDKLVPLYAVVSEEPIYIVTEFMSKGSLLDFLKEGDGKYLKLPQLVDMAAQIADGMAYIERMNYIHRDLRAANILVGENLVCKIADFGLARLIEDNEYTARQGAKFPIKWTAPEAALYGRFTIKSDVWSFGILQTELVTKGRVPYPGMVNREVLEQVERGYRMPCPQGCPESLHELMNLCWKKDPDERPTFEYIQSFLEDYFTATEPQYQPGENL"}
{"data": "Series 1", "Structure (SMILES)": "CCn1cnc2c(Nc3cccc(Cl)c3)nc(N[C@H]3CCCC[C@H]3N)nc21", "read-out": "enzyme activity", "mode": "inhibitor", "concentration": "0.5 µM", "relative to": "control"}
{"target": "Cyclin-dependent kinase 5, with p35 (CDK5, Homo sapiens, UniProt Q00535)", "remaining activity": "13.2%"}
{"target": "Serine/threonine-protein kinase MARK1 (MARK1, Homo sapiens, UniProt Q9P0L2)", "remaining activity": "93.1%"}
{"target": "Serine/threonine-protein kinase pim-1 (PIM1, Homo sapiens, UniProt P11309)", "remaining activity": "83.8%"}
{"target": "Serine/threonine-protein kinase BRSK2 (BRSK2, Homo sapiens, UniProt Q8IWQ3)", "remaining activity": "94%"}
{"target": "Dual specificity tyrosine-phosphorylation-regulated kinase 1A (DYRK1A, Homo sapiens, UniProt Q13627)", "remaining activity": "100%"}
{"target": "Tyrosine-protein kinase Yes (YES1, Homo sapiens, UniProt P07947)", "remaining activity": "35.4%"}
{"target": "Tyrosine-protein kinase Fes/Fps (FES, Homo sapiens, UniProt P07332)", "remaining activity": "83.5%"}
{"target": "Ribosomal protein S6 kinase beta-2 (RPS6KB2, Homo sapiens, UniProt Q9UBS0)", "remaining activity": "103%"}
{"target": "Maternal embryonic leucine zipper kinase (MELK, Homo sapiens, UniProt Q14680)", "remaining activity": "77%"}
{"target": "Activin receptor type-1-like (ACVRL1, Homo sapiens, UniProt P37023)", "remaining activity": "99.9%"}
{"target": "Serine/threonine-protein kinase PAK 5 (PAK5, Homo sapiens, UniProt Q9P286)", "remaining activity": "64.7%"}
{"target": "Serine/threonine-protein kinase PAK 4 (PAK4, Homo sapiens, UniProt O96013)", "remaining activity": "84.5%"}
{"target": "Tyrosine-protein kinase JAK2 (JAK2, Homo sapiens, UniProt O60674)", "remaining activity": "104%"}
{"target": "Receptor tyrosine-protein kinase erbB-2 (ERBB2, Homo sapiens, UniProt P04626)", "remaining activity": "95.6%"}
{"target": "Ephrin type-B receptor 3 (EPHB3, Homo sapiens, UniProt P54753)", "remaining activity": "92.7%"}
{"data": "Series 2", "cell line": "A-375", "concentration": "100 µM", "time": "36 h"}
{"SMILES": "Cc1cccc([C@H](C)c2cnc[nH]2)c1C", "viability": "106%"}
{"SMILES": "CC[C@@]1(O)C(=O)OCc2c1cc1n(c2=O)Cc2cc3cc(O)ccc3nc2-1", "viability": "26%"}
{"SMILES": "O=C(CCCN1CCC2(CC1)C(=O)NCN2c1ccccc1)c1ccc(F)cc1", "viability": "7.43%"}
{"SMILES": "C[C@@H]1CC[C@@]2(OC1)O[C@H]1[C@@H](O)[C@H]3[C@@H]4CC[C@H]5C[C@@H](O[C@@H]6O[C@H](CO)[C@H](O[C@@H]7O[C@H](CO)[C@@H](O)[C@H](O[C@@H]8OC[C@@H](O)[C@H](O)[C@H]8O)[C@H]7O[C@@H]7O[C@H](CO)[C@H](O)[C@H](O[C@@H]8O[C@H](CO)[C@@H](O)[C@H](O)[C@H]8O)[C@H]7O)[C@H](O)[C@H]6O)[C@H](O)C[C@]5(C)[C@H]4CC[C@]3(C)[C@H]1[C@@H]2C", "viability": "-1.53%"}
{"SMILES": "C[C@]12C=CC(=O)C=C1CC[C@@H]1[C@@H]2CC[C@@]2(C)[C@H]1CC[C@]2(C)O", "viability": "48.4%"}
{"SMILES": "O=P1(N(CCCl)CCCl)NCCCO1 (stereo not shown)", "viability": "95.8%"}
{"SMILES": "CNCC(O)c1ccc(O)cc1 (stereo not shown)", "viability": "113%"}
{"SMILES": "C[C@]12CC[C@H]3[C@@H](CCC4=CC(=O)CC[C@@]43C)[C@@H]1CC[C@@H]2O", "viability": "73.8%"}
{"SMILES": "O=C(O)[C@@H]1[C@H](C(=O)O)[C@H]2CC[C@@H]1O2", "viability": "54.8%"}
{"SMILES": "CCC[C@H](NC(=O)[C@@H]1[C@H]2CCC[C@H]2CN1C(=O)[C@@H](NC(=O)[C@@H](NC(=O)c1cnccn1)C1CCCCC1)C(C)(C)C)C(=O)C(=O)NC1CC1", "viability": "22.3%"}
{"data": "Series 3", "organism": "Sarcocystis neurona", "read-out": "parasite growth", "concentration": "10 µM", "time": "96 h", "relative to": "untreated"}
{"SMILES": "CCc1nc(N)nc(N)c1-c1ccc(Cl)cc1", "log2 fold change": -2.68}
{"SMILES": "CNC1=Nc2ccc(Cl)cc2C(c2ccccc2)=[N+]([O-])C1", "log2 fold change": 0.26}
{"SMILES": "CCOC(=O)C1(c2ccccc2)CCN(CCC(C#N)(c2ccccc2)c2ccccc2)CC1", "log2 fold change": -0.15}
{"SMILES": "COc1cc2c(cc1OC)[C@@]13CCN4CC5=CCO[C@H]6CC(=O)N2[C@H]1[C@H]6[C@H]5C[C@H]43", "log2 fold change": -0.18}
{"SMILES": "C[C@]12Cc3c[nH]nc3C[C@@H]1CC[C@@H]1[C@@H]2CC[C@@]2(C)[C@H]1CC[C@]2(C)O", "log2 fold change": -0.16}
{"data": "Series 4", "cell line": "HEK-293T", "read-out": "pseudovirus infection", "method": "FDA-approved drug library counter-screen", "organism": "VSV pseudotyped with VSV-G", "concentration": "10 µM", "time": "16 h", "relative to": "vehicle-treated"}
{"SMILES": "CS(=O)(=O)CCNCc1ccc(-c2ccc3ncnc(Nc4ccc(OCc5cccc(F)c5)c(Cl)c4)c3c2)o1", "GFP-positive cells": "37%"}
{"SMILES": "NC(=O)N1c2ccccc2CC(=O)c2ccccc21", "GFP-positive cells": "126%"}
{"SMILES": "CCC(=O)NCC[C@@H]1CCc2ccc3c(c21)CCO3", "GFP-positive cells": "92.2%"}
{"SMILES": "Cc1nc(Nc2ncc(C(=O)Nc3c(C)cccc3Cl)s2)cc(N2CCN(CCO)CC2)n1", "GFP-positive cells": "91.1%"}
{"SMILES": "CCC(C)(C)C(=O)O[C@H]1C[C@@H](C)C=C2C=C[C@H](C)[C@H](CC[C@@H]3C[C@@H](O)CC(=O)O3)[C@H]21", "GFP-positive cells": "132%"}
{"SMILES": "N#CC1(c2ccc(NC(=O)c3cccnc3NCc3ccncc3)cc2)CCCC1", "GFP-positive cells": "112%"}
{"SMILES": "COc1ccc2[nH]c([S+]([O-])Cc3ncc(C)c(OC)c3C)nc2c1 (stereo not shown)", "GFP-positive cells": "84.1%"}
{"SMILES": "CC(=O)N(CC(O)CO)c1c(I)c(C(=O)NCC(O)CO)c(I)c(C(=O)NCC(O)CO)c1I (stereo not shown)", "GFP-positive cells": "81.2%"}
{"SMILES": "CCCSc1nc(N[C@@H]2C[C@H]2c2ccc(F)c(F)c2)c2nnn([C@@H]3C[C@H](OCCO)[C@@H](O)[C@H]3O)c2n1", "GFP-positive cells": "92.8%"}
{"SMILES": "[H]/N=C(/NCCCCC)N/N=C/c1c[nH]c2ccc(OC)cc12", "GFP-positive cells": "101%"}
{"SMILES": "Cc1onc(-c2ccccc2)c1-c1ccc(S(N)(=O)=O)cc1", "GFP-positive cells": "107%"}
{"SMILES": "O=C(O)CCCCCCCC(=O)O", "GFP-positive cells": "80.9%"}
{"SMILES": "C[C@]12Cc3c[nH]nc3C[C@@H]1CC[C@@H]1[C@@H]2CC[C@@]2(C)[C@H]1CC[C@]2(C)O", "GFP-positive cells": "96.3%"}
{"SMILES": "C=C1CC[C@@]2(O)[C@H]3Cc4ccc(O)c5c4[C@@]2(CCN3CC2CC2)[C@H]1O5", "GFP-positive cells": "94.8%"}
{"SMILES": "CO[C@@]1(NC(=O)Cc2cccs2)C(=O)N2C(C(=O)O)=C(COC(N)=O)CS[C@@H]21", "GFP-positive cells": "136%"}
{"SMILES": "CN(N=O)C(=O)N[C@@H](C=O)[C@@H](O)[C@H](O)[C@H](O)CO", "GFP-positive cells": "115%"}
{"SMILES": "C[C@H](Cc1cc2c(c(C(N)=O)c1)N(CCCO)CC2)NCCOc1ccccc1OCC(F)(F)F", "GFP-positive cells": "104%"}
{"SMILES": "CC(=O)OCC(=O)[C@@]12OC3(CCCC3)O[C@@H]1C[C@H]1[C@@H]3CCC4=CC(=O)C=C[C@]4(C)[C@@]3(F)[C@@H](O)C[C@@]12C", "GFP-positive cells": "101%"}
{"SMILES": "NC(=O)c1cccnc1", "GFP-positive cells": "86.8%"}
{"SMILES": "COC(=O)C1=C(C)NC(C)=C(C(=O)OC(C)C)C1c1cccc2nonc12 (stereo not shown)", "GFP-positive cells": "99.5%"}
{"SMILES": "CN(C)CC[C@@H](c1ccc(Cl)cc1)c1ccccn1", "GFP-positive cells": "119%"}
{"SMILES": "Cc1ccc(C(=O)c2ccc(CC(=O)O)n2C)cc1", "GFP-positive cells": "105%"}
{"note": "For quick reference, copied from above (series 1):"}
{"target": "Tyrosine-protein kinase Fes/Fps (FES, Homo sapiens, UniProt P07332)", "remaining activity": "83.5%"}
{"target": "Ribosomal protein S6 kinase beta-2 (RPS6KB2, Homo sapiens, UniProt Q9UBS0)", "remaining activity": "103%"}
{"target": "Ephrin type-B receptor 3 (EPHB3, Homo sapiens, UniProt P54753)", "remaining activity": "92.7%"}
{"target": "Serine/threonine-protein kinase BRSK2 (BRSK2, Homo sapiens, UniProt Q8IWQ3)", "remaining activity": "94%"}
{"target": "Serine/threonine-protein kinase pim-1 (PIM1, Homo sapiens, UniProt P11309)", "remaining activity": "83.8%"}
{"target": "Tyrosine-protein kinase JAK2 (JAK2, Homo sapiens, UniProt O60674)", "remaining activity": "104%"}
{"target": "Serine/threonine-protein kinase PAK 4 (PAK4, Homo sapiens, UniProt O96013)", "remaining activity": "84.5%"}
{"target": "Serine/threonine-protein kinase MARK1 (MARK1, Homo sapiens, UniProt Q9P0L2)", "remaining activity": "93.1%"}
